Published values pooled from the literature.
Each line is one published result; not all experiments were run side by side. Numbers after ± are the reported error. Converted amounts (≈) assume the structure as drawn.

SMILES = O=C(N/N=C1\C(=O)Nc2ccc(Cl)cc21)N/N=C1\C(=O)Nc2ccc(Cl)cc21; organism = Influenza A virus H3N2; assay = viral replication, MTS; system = MDCK; endpoint = EC50; value = > 100 µM
SMILES = Cc1c2c([nH]c(=O)c1CNC(=O)c1ccc(Br)nc1)CCCC2; organism = Mycobacterium tuberculosis; assay = microbial growth, resazurin; system = H37RV; endpoint = MIC; value = > 50 µg/mL
SMILES = CC(N)C12CC3CC(CC(C3)C1)C2 (stereo not drawn); organism = influenza A virus; assay = viral replication, visual CPE score; system = MDCK, H1N1; endpoint = EC50; value = 10 ± 0.27 µM
SMILES = CCc1cc(CC)c(CNC(=O)c2ccc(C(F)(F)F)nc2)c(=O)[nH]1; organism = Mycobacterium tuberculosis; assay = microbial growth, resazurin; system = H37RV; endpoint = MIC; value = 6.7 µg/mL (≈ 19 µM)
SMILES = CCC(CC)O[C@@H]1C=C(C(=O)O)C[C@H](N)[C@H]1NC(C)=O; organism = influenza A virus; assay = cytopathic effect, MTS; system = MDCK, H1N1; endpoint = EC50; value = 0.35 ± 0.2 µM
SMILES = CCOC(=O)C1=C[C@@H](OC(CC)CC)[C@H](NC(C)=O)[C@@H](N)C1; organism = Influenza A virus; assay = plaque formation; system = H1N1; setting = 30 min; endpoint = IC50; value = 1 to 10 nM
SMILES = CC[C@H](C)[C@@H]1NC(=O)[C@H](CCC(=O)O)NC(=O)[C@H](C)NC(=O)[C@H](C)NC(=O)[C@H]([C@@H](C)O)NC(=O)[C@H](CCC(N)=O)NC(=O)[C@@H]2CSSC[C@H](NC(=O)[C@H](CC(N)=O)NC(=O)CNC(=O)[C@H](CC(N)=O)NC(=O)[C@H](CC(=O)O)NC(=O)[C@H](C(C)C)NC(=O)[C@H](CCSC)NC(=O)[C@H]([C@@H](C)CC)NC(=O)[C@H](CCCCN)NC(=O)[C@H](C(C)C)NC(=O)[C@H]([C@@H](C)O)NC(=O)[C@H](Cc3ccc(O)cc3)NC(=O)CNC(=O)[C@H](Cc3ccccc3)NC(=O)[C@H](C)NC(=O)[C@H](CCCNC(=N)N)NC(=O)[C@H](Cc3c[nH]c4ccccc34)NC1=O)C(=O)N[C@@H](CCCNC(=N)N)C(=O)N[C@@H](CC(C)C)C(=O)N[C@@H](Cc1c[nH]cn1)C(=O)N[C@@H](C(C)C)C(=O)N[C@H](C(=O)O)CSSC[C@H](N)C(=O)N[C@@H]([C@@H](C)CC)C(=O)N[C@@H](CCC(=O)O)C(=O)N[C@@H](CCC(N)=O)C(=O)N[C@@H](CO)C(=O)N[C@@H](Cc1ccccc1)C(=O)N[C@@H]([C@@H](C)O)C(=O)N[C@@H]([C@@H](C)O)C(=O)N[C@@H](CC(C)C)C(=O)N[C@@H](Cc1ccccc1)C(=O)N[C@@H](C)C(=O)N2; organism = influenza A H1N1 CA09; system = mouse BALB/c; scale = reference: FI6v3 over compound, higher = more potent; endpoint = protective dose ratio; value = 100 fold
SMILES = CCC(CC)O[C@@H]1C=C(C(=O)O)C[C@H](N)[C@H]1NC(C)=O; organism = Streptococcus pneumoniae; assay = biofilm formation; scale = no inhibition up to value; endpoint = MBIC90; value = > 50 µM
SMILES = CCC(CC)O[C@@H]1C=C(C(=O)O)C[C@H](N)[C@H]1NC(C)=O; organism = Influenza A virus; assay = viral cytopathic effect, MTS; system = MDCK, H1N1; endpoint = EC50; value = 4.3 µM
SMILES = Cc1[nH]c(=O)c(CNC(=O)c2ccc([N+](=O)[O-])nc2)c2c1CCCC2; organism = Mycobacterium tuberculosis; assay = microbial growth, resazurin; system = H37RV; endpoint = MIC; value = 2.3 µg/mL (≈ 6.72 µM)
SMILES = Cc1ccc2c(c1)/C(=N/NC(=O)N/N=C1\C(=O)Nc3ccc(C)cc31)C(=O)N2; organism = Influenza A virus H3N2; assay = viral replication, visual CPE score; system = MDCK; endpoint = EC50; value = > 20 µM
SMILES = CCN(CC)CCCC(C)Nc1ccnc2cc(Cl)ccc12 (stereo not drawn); organism = unidentified influenza virus; assay = viral replication, inhibitor; system = MDCK, H1N1 PR/8; setting = 24 h; endpoint = IC50; value = 5300 nM
SMILES = O=C1Nc2ccccc2/C1=N/NC(=S)N/N=C1\C(=O)Nc2ccccc21; organism = Influenza A virus H3N2; assay = viral replication, visual CPE score; system = MDCK; endpoint = EC50; value = 72 ± 27 µM
SMILES = CC[C@H](CO)Nc1nc(NCc2ccccc2O)c2ncn(C(C)C)c2n1; organism = unidentified influenza virus; assay = viral replication, inhibitor; system = MDCK, H1N1 PR/8; setting = 24 h; endpoint = IC50; value = > 20000 nM
SMILES = CC(=O)N[C@H]1[C@H]([C@H](O)[C@H](O)CO)OC(SCCCCCCCCCCCCSC2(C(=O)O)C[C@H](NC(=N)N)[C@@H](NC(C)=O)[C@H]([C@H](O)[C@H](O)CO)O2)(C(=O)O)C[C@@H]1NC(=N)N (stereo partly drawn); organism = Influenza A virus; system = H1N1 A/California/07/2009; endpoint = IC50; value = 10 to 1000 nM
SMILES = Cc1[nH]c(=O)c(CNC(=O)c2ccc(C(F)(F)F)o2)c2c1CCCC2; organism = Mycobacterium tuberculosis; assay = microbial growth, resazurin; system = H37RV; endpoint = MIC; value = 2 µg/mL (≈ 5.64 µM)
SMILES = CC(=O)N[C@H]1[C@H]([C@H](O)[C@H](O)CO)OC(SCCOCCOCCOCCSC2(C(=O)O)C[C@H](NC(=N)N)[C@@H](NC(C)=O)[C@H]([C@H](O)[C@H](O)CO)O2)(C(=O)O)C[C@@H]1NC(=N)N (stereo partly drawn); organism = Influenza A virus; system = H1N1 A/California/07/2009; endpoint = IC50; value = 10 to 1000 nM
SMILES = C[C@@H]1N=C(c2ccccc2Cl)c2cc([N+](=O)[O-])ccc2NC1=O; organism = Schistosoma mansoni; assay = current clamp; system = adult males; setting = 10 µM, 10 min; endpoint = trans-surface potential; value = -3.6 ± 0.4 mV
